Published values of several laboratories.
A part holds a random share of what one study measured.

Block 1
Target: Protein C-ets-1 (ETS1, Homo sapiens, UniProt P14921, residues 1-441, full length assumed)
Chain of UniProt P14921 (whole entry, looked up): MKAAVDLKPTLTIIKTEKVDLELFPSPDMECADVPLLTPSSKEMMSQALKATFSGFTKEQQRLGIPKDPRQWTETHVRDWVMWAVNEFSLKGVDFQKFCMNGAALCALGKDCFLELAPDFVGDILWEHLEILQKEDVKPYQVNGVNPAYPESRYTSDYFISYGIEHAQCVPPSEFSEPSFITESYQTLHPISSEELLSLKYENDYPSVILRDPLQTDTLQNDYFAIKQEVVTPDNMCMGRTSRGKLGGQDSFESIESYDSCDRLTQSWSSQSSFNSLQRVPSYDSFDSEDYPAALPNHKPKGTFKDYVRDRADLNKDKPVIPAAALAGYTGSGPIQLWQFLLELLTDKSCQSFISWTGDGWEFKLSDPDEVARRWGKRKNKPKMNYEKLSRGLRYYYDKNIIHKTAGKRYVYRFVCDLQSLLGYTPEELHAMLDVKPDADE
Method: protein-binding microarray
Molecule type: double-stranded DNA, one strand shown
Matrix: in vitro
Tested at: not given
Setting: k-mer, scored over probes, only values ≥0.25
Reading: higher = stronger binding
Oligonucleotide	E-score
CAGATCCA	0.308
TGACGGAA	0.335
CCGGTAGG	0.255
GGGATGCA	0.25

Block 2
Target: Sal-like protein 4, full length isoform B (SALL4, Homo sapiens, UniProt Q9UJQ4-2, residues 1-616)
Method: universal PBM
Molecule type: double-stranded DNA, one strand shown
Matrix: in vitro
Tested at: not given
Setting: 8-mer, flanks averaged, mean of replicates
Reading: higher = stronger binding
Oligonucleotide	E-score
GAGTCAGA	-0.0212
AACACCTT	-0.0269
CCTTCGGC	-0.403
AAGTTTCT	0.123
TATTCTAA	0.259
CAAGACGA	-0.0365

Block 3
Target: RNA binding protein fox-1 homolog 2, RRM domain, GST-SBP tag (RBFOX2, Homo sapiens, UniProt O43251-10, residues 100-194)
Method: RNA Bind-n-Seq
Molecule type: RNA
Matrix: in vitro
Tested at: 365 nM
Setting: natural RNA segment, single round, ends assumed
Reference: no-protein control
Reading: higher = stronger binding
Residues (chain): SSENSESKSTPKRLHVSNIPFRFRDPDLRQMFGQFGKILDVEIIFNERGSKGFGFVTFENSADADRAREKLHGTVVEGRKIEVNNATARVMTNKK
Oligonucleotide	RBNS enrichment (R)
GGGAGUUCUACAGUCCGACGAUCCUCCCCAGCUGACACCCCAAGCACAGCCCCGGCACACCGCACUUUACCGGGAGGCAGGCUGUGCACAGAACCCUCUGCUGUGGAGGCCAGAGACCACCACCAGGCCCGCUUGGAAUUCUCGGGUGCCAA	0.341
GGGAGUUCUACAGUCCGACGAUCGUGUGGUGGUCUCCAUGGCAACUUGGAGCCAGCCAGGAUGGGGUGGGGAGCGGUGGCACUCGUGGGAGGGAGAGGACCCCCGCCCACAUCCUCCUUCCCCAGGACCUGAGUGGAAUUCUCGGGUGCCAA	0.427
GGGAGUUCUACAGUCCGACGAUCCCCCACCAUACAAGAGUUUUAGGUGAUUGAGUGGGUGGAACCAGCUGGAGCCAGGUGGGAGGGGCCUUUACAUUGCCAGCAGGGCCCCAAAGAAUUGAGAUUGUGUAUGGUGGAAUUCUCGGGUGCCAA	1.25
GGGAGUUCUACAGUCCGACGAUCUCCAGUGUUUGGGAUGACCAGGAUCCCAAGCCUCCUGCUGCCACAAUGUUUAUAAAGGCCAAAUGAUAGCGGGGGCUAAGUUGGUGCUUUUGAGAACCAAGUAAAACAAAUGGAAUUCUCGGGUGCCAA	0.419

Mixed results
Substance	target	test	system	conditions	scale	endpoint	result
PhoQ, residues 284 288 289 292 302 303 ALVSVA	PhoP, residues 12 14 15 18 19 SQCLL (Escherichia coli, UniProt P23836)	Sort-seq, item: YFP reporter	E. coli	PhoQ-PhoP variant library, added: 10 µM Mg2+	reference: high Mg2+ state, higher = stronger signaling	fold induction	14.6

Repeated from above (block 2):
Oligonucleotide	E-score
GAGTCAGA	-0.0212
AACACCTT	-0.0269
